Experimental data gathered from unrelated publications.
Parts stem from different laboratories: compare values within a part only.

Series 1
Target: RNA binding protein fox-1 homolog 2, RRM domain, GST-SBP tag (RBFOX2, Homo sapiens, UniProt O43251-10, residues 100-194)
Method: RNA Bind-n-Seq
Form: RNA
Medium: in vitro
Tested at: 365 nM
Setting: natural RNA segment, single round, ends assumed
Reference: no-protein control
Reading: higher = stronger binding
Constant ends, left off below: GGGAGUUCUACAGUCCGACGAUC … UGGAAUUCUCGGGUGCCAA
Construct (chain): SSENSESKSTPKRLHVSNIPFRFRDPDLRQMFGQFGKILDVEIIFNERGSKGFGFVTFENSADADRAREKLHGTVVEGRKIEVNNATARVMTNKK
Sequence	RBNS enrichment (R)
GGCCCCAGAUACAUACAUGCCCACAUGCACGCUUACAUGUUUAGAGCCAUCCUUGUUUCCAAAUAUGACCCUUCGCUUGAGGGCAACUGCAUAGGUACAUCUAACUCUGG	1.93
GUUUAUUUGUUGUUAAGUUAAACUGGAGAAAGUUUGUCAUCCUCAUUUUCAAACUGAAAACUAAUCAAAUAUAGUGCCUAUUUAGUCUCAAAAUAAGGUAACUAUUAACU	0.619
GAAAGAAAAUGUAUUAUUGUGUGUAUCAUUUGUGUGCUUUCAUAGCAAAAAAUGUGUUUCAGUUGUACUGUAACCAAAAAUUCUGUCAAUAAAAUAUUUGAGGUUUUCCU	0.547
UUCUGGUUUGUCCUGAAGGCAGCAGGCCCCUGGUGUUGAACUUUGGCAGUUGCACCUGACCUUCAUUUCUUCUCAAAUUUGACCAGUUCAAGAGACUCGUAGAUGACUUU	0.329
AUAUAGAAGCUCAAAGUUAAGGGAUUUGCUGAAGACUGUAAAGUUAAUGGAAGAAUUGAGACAAAAAUCCAGUGUAGCUGGCCACUUAUCCAGGGCUUUUUCUACUUCAU	0.56
AUUACAAAAUUAAAUUCUACAUUGUUACCAAGAAAUUUGUGGUGAUAAAAAUGGAAAAAUAAAAAUUGGGGAGUUAGUGAGGUUCUGUGCUUAUGUCUAUUUGUUCUGGA	0.974
UGUGAGGAUAAAUAUGCAUGCUUUUUGUAAUUAACUGGUGCUUUGAAAAUCUUUUUUAAGGGAGAAAAAUCUCAACCAAAGUUAUGCUCAUCCAGACAAGCUGACCUUUG	5.06
AAGGCUGCACUCUAGGCUGAACCAUGCUAAAAGCCCAUGCUUAAAUAAAAAAUUAUGUCCAAAAUCUUCUGCAGCUUGCUUAUAUUCGCUCAGUUUUUACUGUGUGUGUG	0.714

Series 2
Target: Ras GTPase-activating protein-binding protein 1, full length (G3BP1, Homo sapiens, UniProt Q13283)
Sequence of UniProt Q13283 (whole entry, looked up): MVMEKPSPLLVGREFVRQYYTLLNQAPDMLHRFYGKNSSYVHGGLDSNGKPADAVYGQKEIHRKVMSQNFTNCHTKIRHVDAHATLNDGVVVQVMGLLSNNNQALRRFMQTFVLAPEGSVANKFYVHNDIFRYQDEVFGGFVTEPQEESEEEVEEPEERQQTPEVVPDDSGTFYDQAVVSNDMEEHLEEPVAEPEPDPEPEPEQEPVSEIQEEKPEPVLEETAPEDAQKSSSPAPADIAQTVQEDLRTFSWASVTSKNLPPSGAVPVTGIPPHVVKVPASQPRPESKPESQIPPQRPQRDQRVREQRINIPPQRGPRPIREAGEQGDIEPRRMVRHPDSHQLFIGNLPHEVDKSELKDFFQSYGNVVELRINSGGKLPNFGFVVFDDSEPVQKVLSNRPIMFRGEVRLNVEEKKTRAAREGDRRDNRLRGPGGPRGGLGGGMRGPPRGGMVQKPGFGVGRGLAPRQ
Method: RNA Bind-n-Seq
Form: RNA
Medium: in vitro
Tested at: 200 nM
Setting: whole 134-nt RNA, ends assumed
With: 150 mM KCl
Reference: input library
Reading: higher = stronger binding
Constant ends, left off below: GGGAGUUCUACAGUCCGACGAUC … UGGAAUUCUCGGGUGUCAAGG
Sequence	log2 enrichment
UCCUGUGCUACACAUCGUAUGUACCGAAUCGGGCCCCCCCGGCCCCCCCGGCCCCCCCGGAAAGUAUUAUGUUACGCCGUUCGGAUCUGC	0.438
CAAGUCCUGUGCUACACAUCGUAUGUACCGAAUCGUGUGUGUGUGUGUGUGUGUGUAAAGUAUUAUGUUACGCCGUUCGGAUCUGCACUU	0.403
AAGUCCUGUGCUACACAUCGUAUGUACCGAAUCGGUUUUUUUGGUUUUUUUGGUGGAAAGUAUUAUGUUACGCCGUUCGGAUCUGCACUU	-1.36
UCAAGUCCUGUGCUACACAUCGUAUGUACCGAAUCGGGAAAGGGAGGGAAAGGGAAAGUAUUAUGUUACGCCGUUCGGAUCUGCACUUCC	1.07
CACAGACAACACGUACCCACACAGACACAGAGGGAAGGGGUUGGGAUGGGGACAGGGUGCACAGCAGGGCGGGGUAGGACCCCAGCCCCU	1.9
UUUUACAACCCCAAUUUAAAGAAAGUUGUAGAGGCCCACAAGAUCGUUCUCUGCGCUGUAAGCCAUGUUUUCAUGCUGCUUUUCAAUGUG	-1.33
UAACUUUAGAGGAGGAUCUGAUGGAUAUGGCAGUGGACGUGGAUUUGGCGAUGGCUAUAAUGGGUAUGGAGGAGGACCUGGAGGUGGCAA	0.239
UCCUGUGCUACACAUCGUAUGUACCGAAUCGGCCCCCCGGGCCCCCCGGGCCCCCCGGGAAAGUAUUAUGUUACGCCGUUCGGAUCUGCA	-0.975
UCUCUUGCUCAAGUUUUCUCUCACAGAUGACAGCCACCUACCACAUAACAUGACCAGCAAACGGACUGUUCCUAGUCCAGAGGGCCUUGC	0.99

Series 3
Target: Histone acetyltransferase KAT6A, both winged helices, GST fusion (KAT6A, Homo sapiens, UniProt Q92794, residues 1-181)
Method: protein binding microarray
Form: double-stranded DNA, one strand shown
Medium: in vitro
Tested at: not given
Setting: 8-mer, flanks averaged, mean of 2 arrays, mostly near background
Reference: not given
Reading: higher = stronger binding
Target sequence (chain): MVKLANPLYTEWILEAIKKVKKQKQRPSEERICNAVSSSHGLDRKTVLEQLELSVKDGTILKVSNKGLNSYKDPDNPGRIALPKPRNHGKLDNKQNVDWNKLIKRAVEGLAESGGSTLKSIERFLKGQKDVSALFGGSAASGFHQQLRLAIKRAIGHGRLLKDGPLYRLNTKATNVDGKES
Sequence	E-score
CCTATGAG	-0.217
GAGAAATC	-0.0404
GATTAGGA	-0.0562
AGACACCT	0.00346
AGTCCGGA	0.0549
CATTATGC	0.0139
TAGTTGGA	-0.145
AAGGAAAG	-0.0434
CTTTGTAA	-0.109
GTTGTACA	0.129
ATAAACAA	-0.0377
CAGCCTCC	-0.17
TGTATCAA	-0.0465
AGGCCCAA	-0.00237
CAAAGAAC	-0.0204
CTTCGAAA	0.0547
CACCGGTA	0.136
ACCGAGCC	0.112
CGACGCCC	0.272
GCCAGGCC	-0.0644
CAGTTAGA	-0.127
GATTGGAC	-0.153

Series 4
Target: Prothrombin, mature alpha-thrombin (F2, Homo sapiens, UniProt P00734)
Method: aptamer microarray, sandwich
Form: DNA with 2'F-ANA
Medium: in vitro
Tested at: 200 nM
Setting: whole 15-mer aptamer, many near background
With: Cy3 exosite-II aptamer, 400 nM
Reading: higher = stronger binding
Sequence: GGTTGGTGTGGTTGG
Modification	mean fluorescence intensity [a.u.]
2'F-ANA at 5 8 9 10 11 12 13	46.1
2'F-ANA at 4 6 7 10 13 14 15	57.5
2'F-ANA at 2 4 7 9 10 14	67.6
2'F-ANA at 1 4 6 9 10 11 12 13	50.5
2'F-ANA at 1 2 3 4 5 7 9	77
2'F-ANA at 2 5 6 7 9 11 12 14 15	94.5
2'F-ANA at 3 6 11 12	1170
2'F-ANA at 1 3 5 6 7 8 11 12 15	105
2'F-ANA at 1 2 4 5 7 8 9 10 13 15	56.2
2'F-ANA at 1 2 3 7 8 12 13	542
2'F-ANA at 1 2 6 7 9 10 12 13	95
2'F-ANA at 1 6 7 8 10	59.3
2'F-ANA at 2 3 7 8 10 12	542
2'F-ANA at 1 4 5 11 12 13 14 15	101
2'F-ANA at 1 2 3 4 6 8 10 11 12 13 14 15	69.5
2'F-ANA at 1 2 3 4 6 7 8 9	250
2'F-ANA at 4 5 8 10	54.1
2'F-ANA at 3 5 7 9 10 12 15	70.1
2'F-ANA at 5 6 8 9 13 14 15	79.2
2'F-ANA at 1 3 5 6 7 8 9 14 15	55.5
